Published values gathered from unrelated publications.
Lines come from different studies, so protocols differ. Values joined by “and” are separate records of one study, mostly repeats; a detail may differ. ± gives the spread as reported.
folP: Dihydropteroate synthase (folP, Bacteria, UniProt P0AC13)
PTPN1: Tyrosine-protein phosphatase non-receptor type 1 (PTPN1, Homo sapiens, UniProt P18031)

SMILES | target | assay | system | conditions | scale | endpoint | result
COc1cccc2c(N3CCC(CCP(=O)(O)O)CC3)ncnc12 | ENPP1 (Homo sapiens, UniProt P22413) | binding, SPR | – | – | – | koff | 0.00197 s⁻¹
N=C(N)c1cc(-c2ccccc2)c(-c2cncn2CCN)s1 | YWHAH/AMOT (Homo sapiens, UniProt Q04917+Q4VCS5) | fluorescence polarization | – | 1 mM, without 14-3-3 protein, with: FITC-labelled Amot-p130 peptide | – | fluorescence polarization interference | no effect
CC(C(=O)O)c1nn(C)c2nc(N)[nH]c(=O)c2c1=O (stereo not shown) | folP | CETSA HiBiT | whole cells | – | – | melting temperature | 75.6 °C
O=C(O[C@@H]1Cc2c(O)cc(O)cc2O[C@@H]1c1cc(O)c(O)c(O)c1)c1cc(O)c(O)c(O)c1 | Albumin (ALB, Homo sapiens, UniProt P02768) | Scatchard plot | – | concentration not given, with: 10 µM HSA | – | number of binding sites | 0.91
O=C(N1CCCC1)n1cc(-c2ccc(-c3ccccc3)cc2)nn1 | Patatin-like phospholipase domain-containing protein 6 (Mus musculus, UniProt Q3TRM4) | probe labelling, inhibitor, competitive ABPP-SILAC, measured: Pnpla6 | mouse T cells | concentration not given, 4 h, protein level | reference: treated over DMSO cells, lower = stronger inhibition | SILAC activity ratio | 1.66
CC1(C)C[C@@H](Nc2cccc(-c3sc(C(=O)O)c(OCC(=O)O)c3Cl)c2)CCN1S(=O)(=O)Cc1cccc(NC(=O)CN2CCC(c3ccc4c(c3)oc(=O)n4C3CCC(=O)NC3=O)CC2)c1 (stereo partly shown) | PTPN1 | degrader, bio-layer interferometry | – | 1000 nM, biotinylated protein immobilised | higher = more binding | BLI binding response | 0.374 a.u.
COc1ccc(C(=O)c2c(C(=O)NCCCN(C)C)oc3ccc(Cl)cc3c2=O)cc1OC | GHSR (Homo sapiens, UniProt Q92847, A204E) | intracellular Ca2+, agonist | HEK293T transiently transfected | – | – | Emax | 113 ± 2.4%
O=C1c2sc(-c3ccc(N4CCC(F)C4)nc3F)nc2CCN1c1cccnc1 (stereo not shown) | TAR DNA-binding protein 43, aggregated (TARDBP, Homo sapiens, UniProt Q13148) | radioligand binding | human, FTLD-TDP type B extract | with: radioligand 18.97 nM | – | specific binding | 2.59 nM and 2.4 nM
Cn1c(=O)n(C2CCC(=O)NC2=O)c2ccc(C3CCN(CC(=O)Nc4cccc(CS(=O)(=O)N5CC[C@H](Nc6cccc(-c7sc(C(=O)O)c(OCC(=O)O)c7Cl)c6)CC5(C)C)c4)CC3)cc21 (stereo partly shown) | PTPN1 | degrader, bio-layer interferometry | – | 62.5 nM, biotinylated protein immobilised | higher = more binding | BLI binding response | 0.197 a.u.
NCc1cc2c(cc1F)C(=O)N(C1CCC(=O)NC1=O)C2 (stereo not shown) | Cereblon/Casein kinase I alpha (CSNK1A1/CRBN, Homo sapiens, UniProt P48729+Q96SW2) | protein degradation, degrader, Western blot | Hep3B | 1 µM, 6 h | – | Dmax | 46%
COC(=O)[C@@]1(C)C=C(C(=O)Nc2cccc(C(=O)Nc3ccc(Nc4nccc(-c5cccnc5)n4)c(C)c3)c2)C(=O)CC1 | MAPK14 (Homo sapiens, UniProt Q16539) | kinase activity, inhibitor | – | 4.938 µM, unit not given | reference: no inhibitor | remaining activity | 0.883
CCCCCCCCCCCCC/C=C/C=O | MMS19 (Homo sapiens, UniProt Q96T76) | competitive isoTOP-ABPP | proteome, soluble, MDA-MB-231 | 100 µM, 60 min, with: iodoacetamide probe | reference: DMSO over compound-treated, higher = stronger cysteine blockade | isoTOP-ABPP competition ratio | 1.1
CN(Cc1nn(C)c2nc(N)[nH]c(=O)c2c1=O)c1nnn[nH]1 | folP | CETSA HiBiT | Escherichia coli, cell lysate | concentration not given | reference: DMSO | melting temperature shift | 18.7 °C
CC[C@H](C)[C@@H]1NC(=O)[C@H](Cc2ccccc2)NC(=O)[C@H](CCC(=O)O)NC(=O)[C@H](CCCNC(=N)N)NC(=O)CNC(=O)[C@@H](NC(=O)[C@H](CC(C)C)NC(=O)[C@H](CCCNC(=N)N)NC(=O)[C@@H](NC(=O)CNC(=O)[C@H](Cc2ccc(O)cc2)NC(=O)[C@@H]2CCCN2C(=O)[C@H](C)NC(=O)[C@H](C)NC(=O)[C@@H](N)CCCNC(=N)N)C(C)C)CSSC[C@@H]2NC(=O)[C@@H](NC(=O)[C@H](CO)NC(=O)[C@H](CO)NC(=O)[C@H](CO)NC(=O)[C@H](CC(C)C)NC(=O)CNC(=O)[C@H](C)NC(=O)[C@H](CC(C)C)NC(=O)[C@@H](NC(=O)[C@@H](N)CC(=O)O)C(C)C)CSSC[C@H](NC(=O)CNC(=O)[C@H](Cc3c[nH]c4ccccc34)NC(=O)[C@H](CCCCN)NC2=O)C(=O)N[C@@H](CO)C(=O)N[C@@H](CCCCN)C(=O)N[C@@H](CO)C(=O)N[C@@H](CCC(=O)O)C(=O)N[C@@H]([C@@H](C)CC)C(=O)N[C@@H](CO)C(=O)N[C@@H](CO)C(=O)N[C@@H](CC(C)C)C(=O)N[C@H](C(=O)O)CSSC[C@@H](C(=O)NCC(=O)NCC(=O)N[C@@H](CO)C(=O)N[C@@H](CCCNC(=N)N)C(=O)N[C@@H](Cc2c[nH]c3ccccc23)C(=O)O)NC(=O)[C@H]([C@@H](C)O)NC(=O)[C@H](Cc2ccccc2)NC(=O)[C@H]([C@@H](C)CC)NC(=O)[C@H](C(C)C)NC(=O)[C@H](C)NC(=O)[C@H](CCCNC(=N)N)NC1=O | RXFP4 (Homo sapiens, UniProt Q8TDU9, W279A) | – | HEK-293T | – | reference: wild type | Emax | 39.3 ± 8.17%
C[C@@H](Nc1nc(N[C@H](C)C(F)(F)F)nc(-c2cccc(Cl)n2)n1)C(F)(F)F | Isocitrate dehydrogenase [NADP], mitochondrial, heterodimer with wild-type (IDH2, Homo sapiens, UniProt P48735, R140Q) | reverse reaction | – | 1 h preincubation, mutant | – | maximum inhibition | 81.8 ± 1%
CC1(C)CC[C@@]2(CO)C(=C3C=C[C@@H]4[C@@]5(C)CC[C@H](O)[C@@](C)(CO)[C@@H]5CC[C@@]4(C)[C@]3(C)C[C@@H]2O)C1 | SIRT1 (Homo sapiens, UniProt Q96EB6) | binding, microscale thermophoresis | – | 35.1 nM | – | MST normalised fluorescence | 910 a.u.
CC(CC(=O)O)c1nn(C)c2nc(N)[nH]c(=O)c2c1=O (stereo not shown) | folP | CETSA HiBiT | Escherichia coli, cell lysate | concentration not given | reference: DMSO | melting temperature shift | 21.4 °C
CSCC[C@@H]1NC(=O)[C@H](CCC(N)=O)NC(=O)[C@H](CCCCN)NC(=O)[C@@H](NC(=O)CN)CSSC[C@@H]2NC(=O)CNC(=O)[C@H](C)NC(=O)[C@H](CC(C)C)NC(=O)[C@@H]3CSSC[C@@H](C(=O)NCC(=O)O)NC(=O)[C@H](Cc4ccccc4)NC(=O)CNC(=O)[C@H](CC(N)=O)NC(=O)[C@@H]4CCCN4C(=O)CNC(=O)[C@H](CSSC[C@H](NC(=O)[C@H](CCCNC(=N)N)NC(=O)[C@H](CCC(N)=O)NC(=O)[C@H](CCCNC(=N)N)NC(=O)[C@H](CCCCN)NC(=O)[C@H](C(C)C)NC(=O)[C@H](CCC(N)=O)NC(=O)[C@H](CC(N)=O)NC1=O)C(=O)N[C@@H](CCCCN)C(=O)N[C@@H](CCC(N)=O)C(=O)N[C@@H](CC(=O)O)C(=O)N[C@@H](CO)C(=O)N[C@@H](CC(=O)O)C(=O)N3)NC(=O)[C@H](C(C)C)NC2=O | Low-density lipoprotein receptor-related protein 6, E1 domain (LRP6, Homo sapiens, UniProt O75581) | binding, SPR | – | pH 7.5 | – | kon | 1.91e+06 ± 220000 M⁻¹ s⁻¹
CCC1(CC)C(=O)N(c2cccc(CN3CCN(Cc4ccc(Br)c5ccccc45)CC3)c2)C1=O.O=C(O)C(F)(F)F | DPP9 (Homo sapiens, UniProt Q86TI2) | enzyme activity, inhibitor | – | 5 µM | – | activity vs control | 79%
N#CN1CC[C@H](C(=O)Nc2nc3c(s2)CN(C(=O)CN=[N+]=[N-])CC3)C1 | Hornerin (Homo sapiens, UniProt Q86YZ3) | click pull-down LC-MS/MS | HEK293T cells | – | – | total spectral count | 1
CC(C)(C(=O)N1CCC(Nc2nc3c(c(=O)[nH]2)CCCC3)CC1)c1ccc(Cl)cc1 | MRGPRD (Homo sapiens, UniProt Q8TDS7, K102A) | miniGq recruitment, agonist, BRET | HEK293T | K102A mutant | reference: wild type | Emax | 71.3 ± 4.64%
COc1ccccc1-c1ccncc1C(=O)Nc1nnc(OCc2ccc(Cl)cc2)s1 | RECQL5 (Homo sapiens, UniProt O94762) | ATPase activity, ADP-Glo | – | 0.95 µM, 1 h | – | remaining activity | 108%
Cn1nc(CC(=O)O)c(=O)c2c(=O)[nH]c(N)nc21 | folP | CETSA HiBiT | whole cells | – | – | melting temperature | 73.8 °C
Cc1cnc2nc1Nc1cccc(c1)COC/C=C/COCc1cc(ccc1OCCN1CCOCC1)N2 | EGFR (Homo sapiens, UniProt P00533, L858R/T790M) | binding | – | 0.1 µM | – | remaining binding | 35%
N[C@H]1CC[C@H](Nc2nccc(-c3cccnc3Oc3ccc(NC(=O)NC4CC4)c4ccccc34)n2)CC1 | HINT1 (Homo sapiens, UniProt P49773) | kinobead competition pulldown | HEK293/HCT116 lysate mixture | 10 µM, 1 h, 4 °C | lower = stronger competition | log2 LFQ intensity | 17.5 and 19.2 and 18.2 and 20.1
CNC(=O)C1CCN(c2cc(C)c(F)cc2NC(=O)c2ccc(-c3cc(O)ccc3C)c(C)c2)CC1 | Tyrosine-protein kinase ABL1, phosphorylated (ABL1, Homo sapiens, UniProt P00519, Y253F) | binding, competition with immobilised ligand | – | 1 µM | – | remaining binding | 24%
CC(C(=O)O)c1n[nH]c2nc(N)[nH]c(=O)c2c1=O (stereo not shown) | folP | CETSA HiBiT | Escherichia coli, whole cells | concentration not given | reference: whole cell over lysate ΔTm | target engagement efficiency | 23.6%
CC(C)[C@H](NC(=O)[C@@H]1CCCN1C(=O)[C@H](CCCCN)NC(=O)[C@H](Cc1ccccc1)NC(=O)[C@H](Cc1ccccc1)NC(=O)[C@H](CC(=O)O)NC(=O)[C@H](CCC(=O)O)NC(=O)[C@H](Cc1ccc(O)cc1)NC(=O)[C@H](CC(=O)O)NC(=O)[C@H](CCC(=O)O)NC(=O)[C@H](CC(=O)O)NC(=O)[C@H](CCC(=O)O)NC(=O)[C@@H](N)Cc1ccc(O)cc1)C(=O)N[C@H](C(=O)N[C@@H](CSSC[C@H](NC(=O)[C@@H](NC(=O)[C@@H](NC(=O)[C@@H]1CCCN1C(=O)[C@H](CCCCN)NC(=O)[C@H](Cc1ccccc1)NC(=O)[C@H](Cc1ccccc1)NC(=O)[C@H](CC(=O)O)NC(=O)[C@H](CCC(=O)O)NC(=O)[C@H](Cc1ccc(O)cc1)NC(=O)[C@H](CC(=O)O)NC(=O)[C@H](CCC(=O)O)NC(=O)[C@H](CC(=O)O)NC(=O)[C@H](CCC(=O)O)NC(=O)[C@@H](N)Cc1ccc(O)cc1)C(C)C)[C@@H](C)O)C(=O)N[C@@H](Cc1ccc(O)cc1)C(=O)N[C@@H](Cc1ccccc1)C(N)=O)C(=O)N[C@@H](Cc1ccc(O)cc1)C(=O)N[C@@H](Cc1ccccc1)C(N)=O)[C@@H](C)O | CCL2 (Homo sapiens, UniProt P13500) | chemokine binding, flow cytometry | THP-1 | with: fluorescent CCL2 1.2 nM | – | Hill slope | -0.866
